# Literature values, collected from citations in different studies.
# Lines come from different studies, so protocols differ. ± gives the spread as reported.
# B1: human myelin basic protein; sequence looked up; chain MGNHAGKRELNAEKASTNSETNRGESEKKRNLGELSRTTSEDNEVFGEADANQNNGTSSQDTAVTDSKRTADPKNAWQDAHPADPGSRPHLIRLFSRDAPGREDNTFKDRPSESDELQTIQEDSAATSESLDVMASQKRPSQRHGSKYLATASTMDHARHGFLPRHRDTGILDSIGRFFGGDRGAPKRGSGKDSHHPARTAHYGSLPQKSHGRTQDENPVVHFFKNIVTPRTPPPSQGKGRGLSLSRFSWGAEGQRPGFGYGGRASDYKSAHKGFKGVDAQGTLSKIFKLGGRDSRSGSPMARR
# B2: recombinant human GDNF; sequence looked up; chain SPDKQMAVLPRRERNRQAAAANPENSRGKGRRGQRGKNRGCVLTAIHLNVTDLGLGYETKEELIFRYCSGSCDAAETTYDKILKNLSRNRRLVSDKVGQACCRPIAFDDDLSFLDDNLVYHILRKHSAKRCGCI
# UniProt P00698, sequence (whole entry, looked up): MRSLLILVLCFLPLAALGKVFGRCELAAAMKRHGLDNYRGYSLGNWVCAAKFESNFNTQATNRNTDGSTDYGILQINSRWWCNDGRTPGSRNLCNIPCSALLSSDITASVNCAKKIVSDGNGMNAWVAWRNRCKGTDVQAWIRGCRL
# UniProt D4Z2G1, sequence (whole entry, looked up): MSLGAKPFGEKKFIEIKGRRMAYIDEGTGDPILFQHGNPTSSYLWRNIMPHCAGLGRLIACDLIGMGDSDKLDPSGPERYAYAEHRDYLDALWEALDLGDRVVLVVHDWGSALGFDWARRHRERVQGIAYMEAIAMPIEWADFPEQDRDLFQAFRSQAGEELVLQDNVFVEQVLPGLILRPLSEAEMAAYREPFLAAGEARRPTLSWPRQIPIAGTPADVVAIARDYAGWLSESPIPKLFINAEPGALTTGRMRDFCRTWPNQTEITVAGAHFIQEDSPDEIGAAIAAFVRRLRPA
# UniProt P02730, sequence (whole entry, looked up): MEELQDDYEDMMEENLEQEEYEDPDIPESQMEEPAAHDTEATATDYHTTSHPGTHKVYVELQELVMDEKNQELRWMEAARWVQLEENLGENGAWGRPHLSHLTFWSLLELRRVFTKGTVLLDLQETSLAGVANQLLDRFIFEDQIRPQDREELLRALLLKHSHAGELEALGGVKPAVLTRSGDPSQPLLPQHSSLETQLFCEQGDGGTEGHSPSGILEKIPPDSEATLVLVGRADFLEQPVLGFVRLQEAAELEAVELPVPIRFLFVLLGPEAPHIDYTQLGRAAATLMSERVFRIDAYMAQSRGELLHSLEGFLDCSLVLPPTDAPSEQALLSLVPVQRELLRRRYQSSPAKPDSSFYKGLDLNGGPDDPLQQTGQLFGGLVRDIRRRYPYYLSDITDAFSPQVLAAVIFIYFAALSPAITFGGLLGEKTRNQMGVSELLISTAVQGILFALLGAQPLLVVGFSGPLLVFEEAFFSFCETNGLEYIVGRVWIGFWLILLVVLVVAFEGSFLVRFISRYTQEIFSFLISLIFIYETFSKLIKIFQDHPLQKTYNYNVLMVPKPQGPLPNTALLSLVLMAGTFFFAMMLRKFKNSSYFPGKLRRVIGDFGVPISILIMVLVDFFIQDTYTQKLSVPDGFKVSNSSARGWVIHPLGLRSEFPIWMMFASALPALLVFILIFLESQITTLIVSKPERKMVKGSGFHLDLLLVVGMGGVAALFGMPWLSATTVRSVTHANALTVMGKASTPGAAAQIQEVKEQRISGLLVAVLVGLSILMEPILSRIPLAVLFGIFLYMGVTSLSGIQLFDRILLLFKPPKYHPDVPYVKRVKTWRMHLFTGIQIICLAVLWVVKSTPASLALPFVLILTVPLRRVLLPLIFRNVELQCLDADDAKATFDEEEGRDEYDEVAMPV
# UniProt P07949, sequence (whole entry, looked up): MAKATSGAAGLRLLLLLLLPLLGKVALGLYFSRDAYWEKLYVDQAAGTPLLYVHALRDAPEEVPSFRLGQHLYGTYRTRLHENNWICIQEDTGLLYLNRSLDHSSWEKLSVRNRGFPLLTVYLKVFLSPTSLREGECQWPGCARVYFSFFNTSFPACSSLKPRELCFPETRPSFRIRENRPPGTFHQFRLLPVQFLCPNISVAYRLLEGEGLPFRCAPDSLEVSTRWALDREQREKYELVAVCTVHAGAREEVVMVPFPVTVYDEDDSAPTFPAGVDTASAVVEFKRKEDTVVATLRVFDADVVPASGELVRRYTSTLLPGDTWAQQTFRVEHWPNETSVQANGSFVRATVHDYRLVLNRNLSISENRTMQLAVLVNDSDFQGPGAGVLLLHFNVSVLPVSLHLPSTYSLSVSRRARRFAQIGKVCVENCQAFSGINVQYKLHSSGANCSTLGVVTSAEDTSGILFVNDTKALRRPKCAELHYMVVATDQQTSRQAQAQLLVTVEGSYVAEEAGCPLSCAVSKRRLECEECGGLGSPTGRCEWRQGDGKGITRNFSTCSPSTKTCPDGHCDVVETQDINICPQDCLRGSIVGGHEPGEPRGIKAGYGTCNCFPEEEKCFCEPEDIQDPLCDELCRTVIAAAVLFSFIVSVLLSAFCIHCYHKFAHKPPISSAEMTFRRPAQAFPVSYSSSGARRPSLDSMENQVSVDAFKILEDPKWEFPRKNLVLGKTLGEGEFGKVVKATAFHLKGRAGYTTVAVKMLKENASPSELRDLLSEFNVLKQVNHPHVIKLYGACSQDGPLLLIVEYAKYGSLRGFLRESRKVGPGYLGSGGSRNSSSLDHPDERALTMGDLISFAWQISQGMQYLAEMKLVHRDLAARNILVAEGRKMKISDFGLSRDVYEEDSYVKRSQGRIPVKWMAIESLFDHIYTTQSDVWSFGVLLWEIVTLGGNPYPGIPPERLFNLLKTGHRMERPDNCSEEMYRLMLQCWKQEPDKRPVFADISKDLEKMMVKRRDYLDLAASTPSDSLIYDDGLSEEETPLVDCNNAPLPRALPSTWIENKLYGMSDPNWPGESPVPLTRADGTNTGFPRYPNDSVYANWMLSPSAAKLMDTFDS
# UniProt P0AES9, sequence (whole entry, looked up): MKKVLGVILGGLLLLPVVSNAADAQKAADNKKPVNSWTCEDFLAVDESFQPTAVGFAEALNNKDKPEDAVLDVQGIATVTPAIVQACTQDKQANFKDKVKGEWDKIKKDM
# UniProt P56450, sequence (whole entry, looked up): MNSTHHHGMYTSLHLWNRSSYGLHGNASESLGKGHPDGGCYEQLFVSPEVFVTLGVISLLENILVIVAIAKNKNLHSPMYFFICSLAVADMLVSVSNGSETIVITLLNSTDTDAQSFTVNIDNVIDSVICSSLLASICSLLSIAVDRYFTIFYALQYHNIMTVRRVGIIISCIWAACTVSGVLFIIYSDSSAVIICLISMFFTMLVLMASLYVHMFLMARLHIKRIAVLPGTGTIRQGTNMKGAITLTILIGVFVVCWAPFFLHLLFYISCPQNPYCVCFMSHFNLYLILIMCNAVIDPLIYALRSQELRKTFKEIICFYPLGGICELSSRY
Substance,target or system,assay,test system,setting,endpoint,value
VEGF,neuropilin-1,,,,Kd,2 µM
insulin glulisine,,item: total insulin,human,"subcutaneous thigh, 0.2 U/kg, dose-adjusted from 0.1 U/kg",Cmax,684 pmol/L
infliximab,,,"human, rheumatoid arthritis, serum",,trough level threshold for response,1 µg/mL
CCCCCCCl,"linB (Sphingobium indicum, UniProt D4Z2G1)","enzyme-substrate dissociation, substrate",,"pH 8.6, 37 °C",Kd,240 µM
"hdeA mature protein (Escherichia coli, UniProt P0AES9)",,"NMR, item: Asp83",,"298 K, numbering of the source",pKa,3.97
MKVIFLKDVKGKGKKGEIKNVA (rplI NTL9 residues 1-22 (Geobacillus stearothermophilus)),,"NMR, item: Asp8",peptide,,pKa,3.66
KEKRIKELELLLMSTENELKGQQVL (c-Myb(291-315); sequence looked up),KIX domain,"binding, isothermal titration calorimetry",,"pH 7.0, 27 °C",Kd,10 ± 2 µM
oxytocin,,,"rhesus monkey, cerebrospinal fluid","intranasal aerosol, 24 IU, 60 and 120 min",CSF concentration,~70 pg/mL
CVRLHESCLGQQVPCCDPCATCYCRFFNAFCYCR (agouti-related protein (87–120); sequence looked up),"Melanocortin receptor 4 (Mus musculus, UniProt P56450)","antagonist, cAMP",peptide,,Ki,3.2 nM
O=P(O)(O)OC[C@@H](O)[C@@H](O)CO,orotidine 5'-phosphate decarboxylase wild type,activator,,"pH 7.0, 25 °C, ionic strength 0.15 (NaCl), with: FO",Kd,30000 µM
Cc1c(OCC(F)(F)F)ccnc1C[S+]([O-])c1nc2ccccc2[nH]1 (stereo not drawn),paired helical tau filaments,radioligand binding,,,Kd,0.83 ± 0.18 µM
CCCC[N+](CCCC)(CCCC)Cc1ccc(C(=O)c2ccccc2)cc1,BK channel (open state),"channel block, blocker",,membrane potential 0 mV,Kd,6 µM
O=P(O)(O)O[C@@H]1[C@H](O)[C@H](O)[C@@H](OP(=O)(O)O)[C@H](OP(=O)(O)O)[C@H]1O,IP3R1 N-terminal domain residues 1-604,"binding, FP competition",,"4 °C, after incubation at 37 °C",Kd,0.086 ± 0.009 µM
B1 (human myelin basic protein),Aβ40 Dutch/Iowa peptide,SPR,,,Kd,0.0169 ± 1.4e-11 µM
Nc1ncnc2c1ncn2[C@@H]1O[C@H](COP(=O)(O)OP(=O)(O)O)[C@@H](O)[C@H]1O,CFTR NBD1,"binding, SPR or ITC",,,Kd,19 ± 1.9 µM
CC(C)COCC(CN(Cc1ccccc1)c1ccccc1)N1CCCC1 (stereo not drawn),"cardiac troponin C N-domain, calcium-saturated",binding,,no switch peptide,Kd,20 µM
C=CCOC(=O)/N=c1\oc2cc(N(CC)CC)ccc2cc1-c1nc2ccccc2s1,Keap1-Nrf2 interaction,binding,,,Kd,5.1 µM
Nc1ccn([C@H]2C[C@H](O)[C@@H](COP(=O)(O)NP(=O)(O)OP(=O)(O)O)O2)c(=O)n1,DNA polymerase beta,nucleotide insertion,,opposite templating guanosine,Kd,1.7 ± 0.3 µM
C=CC1=C(C)c2cc3[nH]c(cc4nc(cc5[nH]c(cc1n2)c(C)c5CCC(=O)O)C(CCC(=O)O)=C4C)c(C)c3C=C,TSPO Rhodobacter sphaeroides wild type,,purified protein,,Kd,0.3 ± 0.01 µM
Nc1nc2c(ncn2[C@@H]2O[C@H](COP(=O)(O)OP(=O)(O)OP(=O)(O)O)[C@@H](O)[C@H]2O)c(=O)[nH]1,H-Ras,binding,,,Kd,1.67e-05 µM
B2 (recombinant human GDNF),"Proto-oncogene tyrosine-protein kinase receptor Ret (RET, Homo sapiens, UniProt P07949)","RET phosphorylation, activator",,,minimal effective concentration,≥ 50 ng/mL
"LYZ (Gallus gallus, UniProt P00698)",,"NMR, item: Asp119",,"NaCl 100 mM, numbering of the source",pKa,3.5
[I-].[K+],"SLC4A1 (Homo sapiens, UniProt P02730)","Cl- exchange, noncompetitive inhibitor",,,Kd,~60000 µM
c1c[nH]cn1,sperm whale metmyoglobin,binding,,pH 8,Kd,14000 µM

# For quick reference, copied from above:
Substance,target or system,assay,test system,setting,endpoint,value
[I-].[K+],"SLC4A1 (Homo sapiens, UniProt P02730)","Cl- exchange, noncompetitive inhibitor",,,Kd,~60000 µM
